# Assay results of several laboratories.
# Parts stem from different laboratories: compare values within a part only. Substitutions count along the parent as printed.

# Sample 1 — target: CCNE2, cyclin fold, Cln2 fusion (human); method: yeast growth competition, sequencing; sample: yeast; notes: strong parent motif; reference: not given; reading: higher = stronger binding
# Parent: CDKN1B docking peptide (human); PSACRNLFGPVDH; partner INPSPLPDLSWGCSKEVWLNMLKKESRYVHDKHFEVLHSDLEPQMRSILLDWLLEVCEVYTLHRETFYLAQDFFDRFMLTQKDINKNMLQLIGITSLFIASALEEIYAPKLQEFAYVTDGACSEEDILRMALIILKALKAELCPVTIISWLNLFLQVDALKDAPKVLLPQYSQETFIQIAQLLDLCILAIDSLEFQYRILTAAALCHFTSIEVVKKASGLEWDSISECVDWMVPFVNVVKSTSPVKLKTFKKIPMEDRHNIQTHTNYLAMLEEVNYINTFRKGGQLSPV
Substitution,normalised enrichment score
PSACRFLFGPVDH [N6F],0.391
PSACRNLFGPDDH [V11D],0.839
PSACRNLFGDVDH [P10D],1.86
PSACRNLFGPYDH [V11Y],1.69
PSACRNLFGEVDH [P10E],1.2
PSACRNLFGPFDH [V11F],1.82
PSACRNLFGPVPH [D12P],1.71
PSACRNLFGPVMH [D12M],1.17
PIACRNLFGPVDH [S2I],0.335
PSACENLFGPVDH [R5E],0.417
PSACRNLFGPVDA [H13A],1.42
PSACRNLTGPVDH [F8T],0.187
PSACRNAFGPVDH [L7A],0.104
ASACRNLFGPVDH [P1A],2.02
PSPCRNLFGPVDH [A3P],0.833
PSECRNLFGPVDH [A3E],0.637
PSACRNLFSPVDH [G9S],0.51

# Sample 2 — method: RNA Bind-n-Seq; form: RNA; sample: in vitro; tested at: not given; reference: input RNA pool; reading: higher = stronger binding
# Target: RING finger protein unkempt homolog, zinc fingers 1-6, GST-SBP tag (UNK, Homo sapiens, UniProt Q9C0B0, residues 30-357)
# UniProt Q9C0B0, sequence (30-357, looked up): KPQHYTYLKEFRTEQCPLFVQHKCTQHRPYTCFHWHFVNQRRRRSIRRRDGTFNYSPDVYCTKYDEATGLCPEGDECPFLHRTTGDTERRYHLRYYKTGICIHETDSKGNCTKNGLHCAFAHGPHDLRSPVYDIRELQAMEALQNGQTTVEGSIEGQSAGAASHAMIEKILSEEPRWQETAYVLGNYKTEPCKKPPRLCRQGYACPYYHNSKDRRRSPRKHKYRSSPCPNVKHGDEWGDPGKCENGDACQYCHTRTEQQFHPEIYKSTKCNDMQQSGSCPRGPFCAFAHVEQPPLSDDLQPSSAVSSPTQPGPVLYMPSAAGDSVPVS
# Notes: RNA with constant flanks, human-mouse chimeric sites, ends assumed
# Constant ends, left off below: GGGAGUUCUACAGUCCGACGAUC … CAACAGAGGAUUGAGCAUCA
Sequence,bound/input enrichment
CAGCCUCAGAGCCCAGACUUCCUGGAUAUUACCAACCCUAAAGCGGUAUUAGAAAAUGCAUUGAGAAACUUCGCCUGUCUGACGACUGGAGAUGUGAUUGCCAUCAACUAUAAUGAAAAG,0.43 ratio
GAGUCGAGCAAACUUGAAACUACAGAAUAUCUUGCAGCCUCAGUGUUCACUUGCUUGUGGCAAUAGCUGGGGUUUUAUAGGUUCUGGAAGGAGAACUGACGAUGAUGCUGCCGCUGCUGC,0.224 ratio
CACACACUCUUCUGCGGGACCCUCAUCUUGCAGGCCCGGGCCUAUGUGGGACCGCACGUCCUGGCAGUGGUGACCCGCACAGGGUUCUGCACAGCCAAAGGGGGCCUGGUGAGCUCCAUC,0.12 ratio
AUAAAGGCUAUGUUGAGUGGUCCAGGUCAGUUUGCUGAGAAUGAAACCAACGAGGUCAAUUUUAGAGAGAUACCUUCACAUGUGCUAUCAAAAGUGUGCAUGUAUUUUACGUACAAGGUC,0.227 ratio
CUCAUGGCUGCAGAAACAGGAAGUGGCAAAACUGGUGCAUUUAGUAUUCCCGUUAUCCAGAUAGUGUAUGAAACUCUGAAAGACCAACAGGAAGGAAAGAAAGGGAAAACAACAAUUAAA,1.07 ratio
GUAUACGGUUAUCGAGGAAAGGACUGUAGAGCGAAUGUAUACCUGCUUCCGACCGGGGAGAUAGUUUAUUUUAUCGCCUCAGUGGUAGUCCUGUUUAAUUAUGAGGAGAGAACUCAGCGA,0.379 ratio
UGUAACUUAUCUGUAAAAGGUUCCCCCCCCCUACUGUAAAAAAAUAUGCAUGUAUAGUAAUUAGGACUUCAUUCCUCCAUGUUUUCUUCCCUUAUCUUACUGUCAUUGUCCUAAAACCUU,3.41 ratio
GGAAGUACAAUGAUGGAAAUAGAUGGCGACAAAGGCAAGCAGGGCGGGCCCACCUACUACAUAGACACCAAUGCCCUGCGUGUUCCGAGGGAGAACAUGGAGGCCAUCUCACCACUCAAG,0.19 ratio
UUGGAAGGACCAGAGCCUAAUCAACUGAAACCACUAGUCAUACAGGCUAUGCCCACCCUAAUAGAACUAAUGAAAGACCCCAGUGUAGUUGUUCGAGACACAACAGCAUGGACUGUAGGC,1.12 ratio
AGAGAUAAGACAUCCAGAAAUAUGAGAGGCUCCCGGAUGAAUGGACUGCCUAGCCCCACUCACAGCGCCCACUGUAGCUUCUACCGAACCAGAACCUUGCAGGCACUGAGUAAUGAGAAG,0.5 ratio
AAAUCGUGUGUGUCCAAUAUUGAAAGUACUUUAUCUGCACUCCAGUAUGUAAGCAGUAUAGUAGUUUCUUUAGAGAAUAGGUCAGCCAUUGUAAAGUACAAUGCAAGCUUAGUCACUCCA,2.92 ratio

# Sample 3 — method: RNA Bind-n-Seq; form: RNA; sample: in vitro; tested at: 365 nM; reference: no-protein control; reading: higher = stronger binding
# Target: RNA binding protein fox-1 homolog 2, RRM domain, GST-SBP tag (RBFOX2, Homo sapiens, UniProt O43251-10, residues 100-194)
# Notes: natural RNA segment, single round, ends assumed
# Constant ends, left off below: GGGAGUUCUACAGUCCGACGAUC … UGGAAUUCUCGGGUGCCAA
# Residues (chain): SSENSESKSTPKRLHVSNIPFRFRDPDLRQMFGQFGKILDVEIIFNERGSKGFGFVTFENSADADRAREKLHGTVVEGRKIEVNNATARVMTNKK
Sequence,RBNS enrichment (R)
AUUCUUAGGUCUAACUCGAUUUUUGUGCUCAGGGAAGAUGCACUGAUGUCUUCAAAAAAAAAUCAACAUGCAGAAUGGAAUUUGCAAUAAAGGCUUUUCUAAAACUGGCU,0.674
CAGUGAGGCUGCAGUGGGUCAUUUGGUUCCACCUUCAUCUUUCAGAGCCAGCUGACCUCAGAUUGCCAAAAGUUUGAAGGCCAUGUGCAUGUUCUGUGUGACCCAAGCCU,6.94
AUGCCAUGCGUGCUCCAGAGCCUAGGAACAGCAGACAGAACCCAGUUGGAAUGCUUCUACCCUGGCUUCUAAAUUCAGGCCUGUGGGUAAUCCCAAGUAUACAGGAAAUU,0.377
UGCUCAAGGAAUCCACAUCUGGUGGGUAGGAGAAGAGAGACCCUGUUGCUAUAGUACAGAGACAAGUAUAUCUCUGCCCCAGCUCCAGUCUUGCUGGAUCCUCCUCCAGC,0.265
GAUGAAGCCCACUUGAUCAUGGUGGAUAAGCUUUUUGAUGUGCUGCUGGAUUCGUUUUGCCAGUAUUUUAUCCAGUUAGAAUGGCAAUCAUUAAAAAGUCAGGAAACAAC,0.545
CCCUCCUAUUGUAUUCACUUCUUCUAUUUUCUUAGAAUUCUUGCAACUAAUGAUUGUUCCCCUCCUUCUCCCACCACCAAGUUCUUUGUCCUUCCAACCUCCCGGAAAGG,1.05
GCUUCCCGAUUCUCAGGUCUUCUCGGAGGCAGAUCCCUUCCUGAGCUCCAGGCUCUGACUUCACCGUCACCCUCUGAAGAGCUAUGAUCAUGCUGGUGAGAAAGUAUGAU,0.351
UUCAUCUUUAGCACAAGGAAGGUAUUUAAGUGAGCCAGAGACAAACAGAGCCAUUUUAGUCUUCAUAGUUAUCUGCUAAGAGAGAUAAUGAGCUGACUGUCUAUUUUAAA,0.346
UGCAUAGCCAGGAUGACGGCUUUCAUGUCCCAGAGACCUGUUGUGCUGUGUAUUUUGAUUUCCUGUGUAUGCAAAUGUGUGUAUUUACCAUUGUGUAGGGGGCUGUGUCU,0.449
ACCCCUUAAUAAUAUCAGCUUAAUUUUAAUGACAACUAAAUAUGCUGAAGUGAGGAUUUAGUAUUUUUUAAAAAAGCAAAACAAGGUUCAGUAGUCCUCAGCAAUUCUCC,0.562
GUACCCAGGCUUUAGCAUUAUUGGAUGUCAAUAGCAUUGUUUUUGUCAUGUAGCUGUUUUAAGAAAUCUGGCCCAGGGUGUUUGCAGCUGUGAGAAGUCACUCACACUGG,0.535
CCACCUGGGAUAGCUAGAGCAUCCACACGUGGAAUUCUUUCUUUACUAACAAACGAUAGCUGAUUGAAGGCAACAGGAAAAAAAAAAUCAAAUUGUCCUACUGACGUUGA,0.891

# Sample 4 — method: protein binding microarray; form: double-stranded DNA, one strand shown; sample: in vitro; tested at: not given; reference: not given; reading: higher = stronger binding
# Target: Histone acetyltransferase KAT6A, winged helix 2, GST fusion (KAT6A, Homo sapiens, UniProt Q92794, residues 85-181)
# Notes: 8-mer, flanks averaged, mean of 2 arrays, mostly near background
# Construct (chain): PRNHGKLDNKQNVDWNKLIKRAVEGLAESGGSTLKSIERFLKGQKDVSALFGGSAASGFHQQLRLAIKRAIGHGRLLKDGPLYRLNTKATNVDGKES
Sequence,E-score
CTAATCCC,-0.111
CCGATTAC,-0.00662
ATCGGGTC,0.0693
AGACAATC,0.0622
CAGAGTCC,-0.00112
AGACCAGC,-0.0534
ACAGGTAC,-0.151
CAACAAGA,-0.0329
CGACTGGA,0.0181
CGGTCACA,-0.025
CATAAGTA,-0.222
TCGGCGCA,0.0533
AGACATCA,-0.0522
TCCGTGCA,0.0425
CAAAGTGA,-0.017
AGGACAAT,-0.12
AGTTGACA,0.0248
GTAACCAC,-0.357
CCGTCGGC,0.139
ACTAAACT,-0.0557
CGGAAATA,0.0838
ACGCCGAT,0.0701
GGGACTAC,-0.0492
GGATTGAA,0.112
AGCTGCGC,0.23

# Sample 5 — method: protein-binding microarray; form: double-stranded DNA, one strand shown; sample: in vitro; tested at: 2540 nM top; notes: 60-bp whole probe; together with: salmon DNA 0.4 mg/ml; reference: random background probes; reading: higher = stronger binding; constant ends, left off below: GCCTAGCAC … GTCTTGATTCGCTTGACGCTGCTG
# Target: Interferon regulatory factor 3, full length, phosphomimetic (IRF3, Homo sapiens, UniProt Q14653, residues 1-427, S386D/S396D/S398D/S402D/T404D/S405D)
# Residues (chain): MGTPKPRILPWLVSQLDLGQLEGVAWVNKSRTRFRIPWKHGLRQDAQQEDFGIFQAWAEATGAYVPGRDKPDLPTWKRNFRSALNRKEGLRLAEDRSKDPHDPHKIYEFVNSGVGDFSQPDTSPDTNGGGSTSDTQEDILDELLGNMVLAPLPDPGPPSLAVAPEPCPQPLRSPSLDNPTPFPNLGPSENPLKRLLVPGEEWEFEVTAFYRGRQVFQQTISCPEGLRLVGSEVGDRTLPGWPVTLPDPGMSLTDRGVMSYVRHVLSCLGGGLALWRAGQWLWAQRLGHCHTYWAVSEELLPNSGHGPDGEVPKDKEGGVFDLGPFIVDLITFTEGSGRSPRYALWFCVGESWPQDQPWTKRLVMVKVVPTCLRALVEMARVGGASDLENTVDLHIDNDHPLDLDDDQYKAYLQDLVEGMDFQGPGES
Sequence,fitted relative affinity
GCCGAACTGAGTATCGAGACGTGCTAG,1.18 z-score
GACGGACTGGGGTAACGGGACGTGCTA,-0.938 z-score
GTAGGTTTCCTTATCCTTTAGTGCTAG,8.47 z-score
TTAGGTCTCCTTTCCCTTTAGTGCTAG,5.33 z-score
GACGGACTGCTGATCCTGACGTGCTAG,-0.489 z-score
TTAGGTATCGGGTATCGGCTAGTGCTA,1.12 z-score
TTAGGTTTCGGGTACCGGTTAGTGCTA,3.8 z-score
TTAGCTTTCCTTTCCCTTTAGTGCTAG,8.6 z-score
GACGGATTCGGGACTGGGGACGTGCTA,0.707 z-score
GACGGTATCGATTTCGGGACGTGCTAG,4.01 z-score
TCAAATAATCTTTTCACACTGTGCTAG,0.52 z-score
CCATACTTCCCACTGGTCTTGTGCTAG,0.871 z-score
GACGAACTGAAACTGGAGACGTGCTAG,0.807 z-score
TTAGATTTTAGACTGGATTAGTGCTAG,-0.135 z-score
TTAGATATCGGGACTGCATTAGTGCTA,0.0116 z-score
GACGGACTGGACGATCGGGACGTGCTA,-0.342 z-score
GACGCTTTCAGTATCGAGACGTGCTAG,2.39 z-score
GGCTTTGACTCTTTCTGTCAGTGCTAG,0.0318 z-score
TTAGGTTCCTTTTTCCTTTAGTGCTAG,9.32 z-score
TTAGATATCCGGTTTCGATTAGTGCTA,3.44 z-score

# Excerpt of the above (sample 5):
Sequence,fitted relative affinity
TTAGCTTTCCTTTCCCTTTAGTGCTAG,8.6 z-score
GACGGATTCGGGACTGGGGACGTGCTA,0.707 z-score
GACGGTATCGATTTCGGGACGTGCTAG,4.01 z-score
TCAAATAATCTTTTCACACTGTGCTAG,0.52 z-score
CCATACTTCCCACTGGTCTTGTGCTAG,0.871 z-score
